Measurements of several laboratories.
Every numbered part comes from another study and shows a few of its results, in no order. Positions count from the first letter of the parent shown.

Block 1
Target: Histone acetyltransferase KAT6A, winged helix 1, GST fusion (KAT6A, Homo sapiens, UniProt Q92794, residues 1-85)
Technique: protein binding microarray
Form: double-stranded DNA, one strand shown
Sample: in vitro
Tested at: not given
Notes: 8-mer, flanks averaged, mean of 2 arrays, mostly near background
Baseline: not given
Direction: higher = stronger binding
Target sequence (chain): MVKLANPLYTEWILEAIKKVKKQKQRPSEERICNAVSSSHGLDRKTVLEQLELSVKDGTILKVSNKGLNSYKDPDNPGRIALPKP
`ACCAGGAA` gave an E-score of -0.173.
The E-score of `CGGTCTGC` is reported as 0.261.
For `GAGTTCGC`, the E-score was 0.134.
`ATTCCGTG` has an E-score of 0.155.
For `CTAGCGAG`, the E-score was -0.00553.
The E-score of `ATGACGCC` is reported as 0.137.
`AGATTTCA` gave an E-score of -0.139.

Block 2
Target: CCNA2, cyclin fold, Cln2 fusion (human)
Technique: yeast growth competition, sequencing
Sample: yeast
Notes: strong parent motif
Baseline: not given
Direction: higher = stronger binding
Parent: CDC6 docking peptide (human); TLKGRRLVFDNQL
Under “normalised enrichment score”, `L7I` is recorded as 1.6.
`V8W` — result for “normalised enrichment score”: 2.36.
`N11P`: “normalised enrichment score” 2.58.
For `L2E`, “normalised enrichment score” read 0.969.
For `R5G`, “normalised enrichment score” read 0.697.
`Q12Y` — result for “normalised enrichment score”: 3.48.

Block 3
Target: Interferon regulatory factor 7, full length, phosphomimetic (IRF7, Homo sapiens, UniProt Q92985, residues 1-503, S471D/S472D/S475D/S476D/S477D/S483D/S484D/S487D)
Chain of UniProt Q92985 (whole entry, unmodified, looked up): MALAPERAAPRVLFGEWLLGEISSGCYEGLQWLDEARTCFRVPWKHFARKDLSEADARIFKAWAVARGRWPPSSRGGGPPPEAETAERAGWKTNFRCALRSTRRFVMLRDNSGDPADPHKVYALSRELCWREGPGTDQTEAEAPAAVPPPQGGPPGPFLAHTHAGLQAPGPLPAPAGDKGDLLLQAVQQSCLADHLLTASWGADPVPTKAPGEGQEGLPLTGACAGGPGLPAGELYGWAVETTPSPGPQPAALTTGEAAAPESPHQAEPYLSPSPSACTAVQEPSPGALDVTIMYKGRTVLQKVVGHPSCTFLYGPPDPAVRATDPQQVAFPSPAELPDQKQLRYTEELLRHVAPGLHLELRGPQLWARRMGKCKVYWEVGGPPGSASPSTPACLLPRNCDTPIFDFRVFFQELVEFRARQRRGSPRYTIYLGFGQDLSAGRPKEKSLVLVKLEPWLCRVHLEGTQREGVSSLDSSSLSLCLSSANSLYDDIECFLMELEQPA
Technique: protein-binding microarray
Form: double-stranded DNA, one strand shown
Sample: in vitro
Tested at: 2200 nM top
Notes: 60-bp whole probe
Together with: salmon DNA 0.4 mg/ml
Baseline: random background probes
Direction: higher = stronger binding
Shared flanks, not repeated: GCCTAGCAC … GTCTTGATTCGCTTGACGCTGCTG
Under “fitted relative affinity”, `TTAGAACTCAGTATCGATTAGTGCTAG` is recorded as -0.142 z-score.
For `GACCGTTTCGGTTCCGGGACGTGCTAG`, “fitted relative affinity” read 8.35 z-score.
`TTAGGCATCGACTTTCGGTTAGTGCTA`: “fitted relative affinity” 4.76 z-score.
`GCCGATCTCAGACTGGAGACGTGCTAG` — result for “fitted relative affinity”: 0.17 z-score.
`GACGGTCTCCTCATCCTGACGTGCTAG`: “fitted relative affinity” 0.654 z-score.

Further values, each from its own experiment
With `PhoQ, residues 284 288 289 292 302 303 GTAMQF` the fold induction was 2.19 (PhoP, residues 12 14 15 18 19 SMASL (Escherichia coli, UniProt P23836); Sort-seq, measured: YFP reporter; E. coli; PhoQ-PhoP variant library, together with: 10 µM Mg2+; baseline: high Mg2+ state, higher = stronger signaling).

Repeated from above (block 3):
Under “fitted relative affinity”, `TTAGAACTCAGTATCGATTAGTGCTAG` is recorded as -0.142 z-score.
